Results pooled from the literature.
Lines come from different studies, so protocols differ. ± gives the spread as reported.

Compound	assay	test system	conditions	scale	endpoint	result
C=CCNc1c(O)cc2c(O)c1C[C@@H](C)C[C@H](OC)[C@H](O)[C@@H](C)/C=C(\C)[C@H](OC(N)=O)[C@@H](OC)/C=C\C=C(/C)C(=O)N2	refers to: first-degree AV block	patients with unresectable or metastatic GIST, STS or other tumours	intravenous, 150 mg/m^2	–	treatment-emergent adverse events	0%
COC[C@]12CN(C)[C@@H]3[C@@H]4[C@H](OC)[C@H]1[C@@]3([C@@H](OC)C[C@H]2O)[C@@H]1C[C@@]2(O)[C@H](OC(=O)c3ccccc3)[C@@H]1[C@]4(OC(C)=O)[C@@H](O)[C@@H]2OC	–	Sprague-Dawley rat, plasma	oral, dose not given, with NADES in PCW extract	–	MRT(0-t)	2.67 ± 0.245 h
CCc1ccc(CC/C=C/c2ccc3c(c2)C(=O)CC3)cc1	–	Sprague-Dawley rat, male, blood	oral, 120 mg/kg/day, 14 days	–	mean platelet volume	11.4 fL
COc1ncnn2ccc(-c3cnc4nc(C)n(Cc5nnc([C@@H](C)F)o5)c4c3)c12	–	human patients	oral, dose not given, all-grade adverse drug reaction	–	incidence of Pyrexia	14.3%
C[C@@H]1NC(=O)[C@H](CCCCNC(=O)CO/N=C/C(=O)NCCCC[C@@H]2NC(=O)[C@@H](Cc3ccccc3)NC(=O)[C@H](CC(=O)O)NC(=O)CNC(=O)[C@H](CCCNC(=N)N)NC2=O)NC(=O)CNC(=O)[C@@H]2CCCN2C(=O)[C@H](CCCCNC(=O)CO/N=C/C(=O)NCCCC[C@@H]2NC(=O)[C@@H](Cc3ccccc3)NC(=O)[C@H](CC(=O)O)NC(=O)CNC(=O)[C@H](CCCNC(=N)N)NC2=O)NC(=O)[C@H](CCCCNC(=O)CCNC(=O)CCNC(=O)CCNC(=O)[C@H](CCCCN)NC(=O)[C@H](Cc2ccccc2)NC(=O)CNC(=O)CN2CCCNCCNCCCNCC2)NC(=O)[C@H](CCCCNC(=O)CO/N=C/C(=O)NCCCC[C@@H]2NC(=O)[C@@H](Cc3ccccc3)NC(=O)[C@H](CC(=O)O)NC(=O)CNC(=O)[C@H](CCCNC(=N)N)NC2=O)NC(=O)CNC(=O)[C@@H]2CCCN2C(=O)[C@H](CCCCNC(=O)CO/N=C/C(=O)NCCCC[C@@H]2NC(=O)[C@@H](Cc3ccccc3)NC(=O)[C@H](CC(=O)O)NC(=O)CNC(=O)[C@H](CCCNC(=N)N)NC2=O)NC1=O [copper-64 labelled]	RP-HPLC	mouse serum	24 h, 37 °C	–	intact fraction	85.3%
CC(C)CC(=O)OC[C@H]1O[C@@](C#N)(c2ccc3c(N)ncnn23)[C@H](O)[C@@H]1O	–	human whole blood	5 µM, 30 min	–	remaining compound	4.99 ± 0.393%
CN1CC[C@@H](c2c(O)cc(O)c3c(=O)cc(-c4ccc(C(F)(F)F)cc4Cl)oc23)[C@@H]1CO	refers to: Hypotension	B-cell malignancies	oral, 100 mg, intermittent dosing	–	patients with adverse event	0%
Cn1c(-c2ccc(C(N)=O)cc2F)nnc1C(C)(C)Oc1c(F)cc(Cl)cc1F	–	human	oral, 1 mg, single ascending dose	–	subjects with any TEAE	50%
COc1cc2c(Oc3ccc4[nH]c(C)cc4c3F)ccnc2cc1OCC1(N)CC1	–	paediatric recurrent refractory sarcoma	8 mg	–	Anorexia incidence	0%
O=C(O)CCCOc1ccc(F)cc1-c1cc(-c2ccccc2C(F)(F)F)n(-c2ccccc2)n1	refers to: Glu	Crl:CD(SD) rats, male, blood	iv, 25 µg/kg, 14 days	–	blood chemistry	135 ± 24.4 mg/dL
NC(=O)[C@H]1CCN(c2ncnc(N)c2F)C[C@@H]1N1CCC[C@@H](Nc2cc(Cl)cc(C(F)(F)F)c2)C1=O	–	B-cell malignancy patients	oral, 41 mg twice daily, dose	–	grade ≥3 platelet decrease	0%
CC[C@H](C)[C@H](NC(=O)[C@H](Cc1ccccc1)NC(=O)[C@H](CCC(=O)O)NC(=O)[C@H](CCCNC(=N)N)NC(=O)[C@H](C)NC(=O)[C@H](C)NC(=O)[C@H](CCC(N)=O)NC(=O)[C@H](CCC(=O)O)NC(=O)[C@H](CCC(=O)O)NC(=O)[C@H](CC(C)C)NC(=O)[C@H](Cc1ccc(O)cc1)NC(=O)[C@H](CO)NC(=O)[C@H](CO)NC(=O)[C@@H](NC(=O)[C@H](CC(=O)O)NC(=O)[C@H](CO)NC(=O)[C@@H](NC(=O)[C@H](Cc1ccccc1)NC(=O)[C@@H](NC(=O)CNC(=O)[C@H](CCC(=O)O)NC(=O)[C@H](C)NC(=O)CCc1cnc[nH]1)[C@@H](C)O)[C@@H](C)O)C(C)C)C(=O)N[C@@H](C)C(=O)N[C@@H](Cc1c[nH]c2ccccc12)C(=O)N[C@@H](CC(C)C)C(=O)N[C@H](C(=O)N[C@@H](CCCNC(=N)N)C(=O)NCC(=O)N[C@@H](CCCNC(=N)N)C(=O)N[C@@H](CCCCNC(=O)COCCOCCNC(=O)COCCOCCNC(=O)CC[C@H](NC(=O)CCCCCCCCCCCCCCCCC(=O)O)C(=O)O)C(=O)NCC(=O)NCC(=O)N[C@@H](CO)C(=O)N[C@@H](CCCCNC(=O)[C@H](CCCCNc1c(NCCCCCN(O)C(=O)CCC(=O)NCCCCCN(O)C(=O)CCC(=O)NCCCCCN(O)C(C)=O)c(=O)c1=O)Nc1c(NCCCCCN(O)C(=O)CCC(=O)NCCCCCN(O)C(=O)CCC(=O)NCCCCCN(O)C(C)=O)c(=O)c1=O)C(=O)O)C(C)C [zirconium-89 labelled]	ex vivo gamma counting	male Sprague-Dawley rats, lung	intravenous, 1 nmol, 24 h	–	tissue uptake	0.659 %ID/g
CC(C)Nc1ccnc(Nc2cccc(-c3cccnc3)c2)n1	refers to: Calcium	mouse, blood	intraperitoneal, 5 mg/kg	–	blood chemistry	10.1 mg/dL
O=S(=O)(Nc1ccccc1)c1ccc(NC(=S)Nc2ccccc2)cc1	refers to: LY%	female mouse, blood	oral, 5 mg/kg daily, 14 days	–	blood cell fraction	76.2%
C[C@]1(CO)Cc2ncn(-c3ccc(C#N)c(Cl)c3)c2C(=O)O1	–	human	20 mg multiple doses, fasted	–	subjects with drug-related hyperhidrosis	11.1%
Cn1ncc(-c2nc(N[C@H]3CC[C@H](N)CC3)ncc2Cl)c1CC1CC1	HPLC-MS/MS	patients, plasma	oral, 5 mg, day 1	–	Cmax	10.7 ng/mL
COc1c(C)cnc(Cn2cc(C#CCCOP(=O)(O)O)c3c(Cl)nc(N)nc32)c1C	–	human, advanced solid tumours	intravenous, range over all dose levels	–	plasma half-life	0.1 to 1.9 h
Clc1ccc(Cl)c(-c2cc(Cl)ccc2Cl)c1	–	Sprague Dawley rat, liver	intraperitoneal, 1 mg/kg	–	organ weight	7.31 g
Nc1nc2cc(-c3ccc4ncc(C(=O)N5CCOCC5)n4c3)ccc2o1	–	human, advanced solid tumours	100–300 mg once daily, all-cause	–	serious adverse events	46%

Compound	assay	test system	conditions	scale	endpoint	result
C[C@H]1C[C@@H](N2C(=N)N[C@](C)(c3cccc(NC(=O)c4cccc(C#N)c4)c3Cl)CC2=O)CCO1	–	rat	500 mg/kg, every other day	–	monocytes count change	38%
CC[C@H](C)[C@H](NC(=O)[C@H](CC(N)=O)NC(=O)[C@H](CCC(=O)O)NC(=O)[C@H](C)NC(=O)[C@H](Cc1c[nH]cn1)NC(=O)[C@@H](NC(=O)[C@@H]1CCCN1C(=O)[C@H](CO)NC(=O)[C@@H]1CCCN1C(=O)[C@@H](NC(=O)[C@H](Cc1ccc(O)cc1)NC(=O)[C@@H](NC(=O)[C@H](CCCNC(=N)N)NC(=O)[C@H](CO)NC(=O)[C@@H](NC(=O)[C@H](Cc1c[nH]cn1)NC(C)=O)[C@@H](C)O)[C@@H](C)CC)[C@@H](C)CC)[C@@H](C)CC)C(N)=O	circular dichroism	water with 5% DMSO	500 µM, 18 °C	–	random coil content	98%
CC(C)c1nc(N(C)S(C)(=O)=O)nc(-c2ccc(F)cc2)c1/C=C/[C@@H](O)C[C@@H](O)CC(=O)O	–	healthy human subjects	oral, dose not given, study CL-0537 safety set	–	incidence of Vomiting	0%
COc1ccc2nc3cc(Cl)ccc3c(Nc3cc(CN4CCCC4)c(O)c(CN4CCCC4)c3)c2n1	–	mouse, blood	oral, 57 mg/kg, tolerability, mean	–	plateletcrit	0.08%
COc1ccc(-c2c(-c3ccc(C#N)c(F)c3)nc(N3CCC(N)CC3)n(C)c2=O)cc1F	refers to: upper respiratory tract infection	human patients	oral, dose not given, dose escalation	–	serious TEAE incidence	0%
CO[C@H]1C[C@@H]2CC[C@@H](C)[C@@](O)(O2)C(=O)C(=O)N2CCCC[C@H]2C(=O)O[C@H]([C@H](C)C[C@@H]2CC[C@@H](OC(=O)NCCOCCOCCOCCOCCOCCOCCOCCOCCC(=O)N3CCc4cc(Cn5nc(-c6ccc7oc(N)nc7c6)c6c(N)ncnc65)ccc4C3)[C@H](OC)C2)C[C@@H](O)[C@H](C)/C=C(\C)[C@@H](O)[C@@H](OC)C(=O)[C@H](C)C[C@H](C)/C=C/C=C/C=C/1C	phase 1 dose escalation, refers to: neutropenia	advanced solid tumour patients	intravenous, 10 mg weekly, grade ≥3	–	dose-reducing adverse events	0%
C[C@]1(O)C[C@@](N)(c2ccc(-c3nc4n(c3-c3ccccc3)COc3ccncc3-4)cc2)C1	–	human, advanced or metastatic solid tumours	20 mg once daily, phase I dose escalation	–	patients with serious AE	66.7%
CC(=O)c1c(C)c2cnc(Nc3ccc(C4CCN(CCS(C)(=O)=O)CC4)cn3)nc2n(C2CCCC2)c1=O	–	human, plasma	oral, 50 mg twice daily, day 21, multiple doses, together with: letrozole	–	clearance	3320 mL/min
CCCCCOc1ccc(-c2ccc(-c3ccc(C(=O)N[C@H]4C[C@@H](O)[C@@H](OCC[N+](C)(C)C)NC(=O)[C@@H]5[C@@H](O)[C@@H](C)CN5C(=O)[C@H]([C@@H](C)O)NC(=O)[C@H]([C@H](O)[C@@H](O)c5ccc(O)cc5)NC(=O)[C@@H]5C[C@@H](O)CN5C(=O)[C@H]([C@@H](C)O)NC4=O)cc3)cc2)cc1	–	adult ICU patients, mITT, serum	dose not given, EOT	–	alkaline phosphatase	194 U/L
CN1CCN(S(=O)(=O)c2cc([N+](=O)[O-])ccc2N(CCOS(C)(=O)=O)CCOS(C)(=O)=O)CC1	–	naive NOD/SCID mice, pooled blood	intraperitoneal, 12.5 mg/kg, week 4	–	globulin	15 g/L
CCN1[C@@H](C(=O)NC23CCC(C(=O)O)(CC2)CC3)[C@H](c2cccc(Cl)c2F)[C@]2(C(=O)Nc3cc(Cl)ccc32)C12CCCCC2	–	patients with advanced solid tumours	oral, 100 mg	–	Hypercholesterolemia incidence	9.1%
CC1(C)C(=O)N(c2ccc(C#N)c(C(F)(F)F)c2)C(=S)N1c1ccc(C(N)=O)c(F)c1	population PK base model	human	dose not given	–	peripheral volume of distribution	49.5 L
CCCCCCCCCCCCCCCC(=O)N[C@@H](CCC(=O)NCCCC[C@H](NC(=O)[C@H](CC(=O)O)NC(=O)[C@H](CO)NC(=O)[C@@H](NC(=O)[C@H](Cc1ccccc1)NC(=O)[C@@H](NC(=O)CNC(=O)[C@H](CCC(N)=O)NC(=O)[C@H](CO)NC(=O)[C@@H](N)Cc1c[nH]cn1)[C@@H](C)O)[C@@H](C)O)C(=O)N[C@@H](CO)C(=O)N[C@@H](CCC(=O)O)C(=O)N[C@@H](Cc1ccc(O)cc1)C(=O)N[C@@H](CC(C)C)C(=O)N[C@@H](CC(=O)O)C(=O)N[C@@H](CO)C(=O)N[C@@H](CCC(=O)O)C(=O)N[C@@H](CCCNC(=N)N)C(=O)N[C@@H](C)C(=O)N[C@@H](CCCNC(=N)N)C(=O)N[C@@H](CC(=O)O)C(=O)N[C@@H](Cc1ccccc1)C(=O)N[C@H](C(=O)N[C@@H](C)C(=O)N[C@@H](Cc1c[nH]c2ccccc12)C(=O)N[C@@H](CC(C)C)C(=O)N[C@@H](CCC(=O)O)C(=O)N[C@@H](C)C(=O)NCC(=O)NCC(=O)O)C(C)C)C(=O)O	refers to: Dizziness	humans CrCl below 20 mL/min	subcutaneous, 100 µg single dose	–	treatment-related adverse events	33.3%
CC(C)n1c(C2CCNCC2)nc2c([N+](=O)[O-])c(Br)c(Br)cc21	refers to: Sepsis	AML patients	125 mg	–	adverse events causing interruption	4%
C[C@@H](NC(=O)N1C(=O)[C@H](Cc2ccnc(N)c2)[C@H]1C(=O)O)C1CCCCC1	–	healthy adult Chinese volunteers	continuous intravenous infusion, 2.25 mg/kg/h, 5-day infusion, CTCAE 5.0 grading	–	drug-related decreased neutrophil	0%
Clc1ccc(-c2cc(Cl)c(Cl)cc2Cl)cc1Cl	–	cow whole milk	50 nM	reference: milk fat over skim milk	milk fat partition ratio	420
O=C(Nc1ccccc1)C1CCN(C(=O)Oc2cccnc2)CC1	–	healthy women	oral, 60 mg, 7 days	–	adverse event Somnolence	7.1%
CC(C)C[C@H](NC(=O)[C@H](CCCCN)NC(=O)OCC1c2ccccc2-c2ccccc21)C(=O)N[C@H](C(=O)N[C@@H](Cc1ccccc1)C(=O)N[C@@H](Cc1ccccc1)C(=O)N[C@@H](CCCCN)C(=O)NCC(=O)N[C@@H](Cc1ccccc1)C(=O)N[C@@H](C)C(=O)N[C@@H](Cc1c[nH]c2ccccc12)C(=O)N[C@@H](CC(N)=O)C(=O)N[C@H](C(=O)N[C@H]1CSSC[C@@H](C(=O)N[C@@H](Cc2c[nH]cn2)C(=O)N[C@@H](CCCNC(=N)N)C(=O)N[C@@H](CCCNC(=N)N)C(=O)N[C@@H](C)C(=O)N[C@@H](CC(N)=O)C(N)=O)NC(=O)[C@H](C(C)C)NC(=O)[C@H](CCCNC(=N)N)NC(=O)[C@H](C(C)C)NC(=O)CNC(=O)[C@H](CC(N)=O)NC(=O)[C@H](CCCNC(=N)N)NC(=O)[C@H](Cc2ccc(O)cc2)NC(=O)[C@H](C(C)C)NC1=O)C(C)C)C(C)C	–	ICR mice, serum	intraperitoneal, 5 mg/kg, day 5	–	globulin	18.69 ± 0.18 g/L
CC(C)(O/N=C(\C(=O)N[C@@H]1C(=O)N2C(C(=O)[O-])=C(C[n+]3ccccc3)CS[C@H]12)c1csc(N)n1)C(=O)O	population PK model, bootstrap	human, plasma	intravenous, dose not given, bootstrap median	–	central volume of distribution	8.2 L

For quick reference, copied from above:
Compound	assay	test system	conditions	scale	endpoint	result
CCN1[C@@H](C(=O)NC23CCC(C(=O)O)(CC2)CC3)[C@H](c2cccc(Cl)c2F)[C@]2(C(=O)Nc3cc(Cl)ccc32)C12CCCCC2	–	patients with advanced solid tumours	oral, 100 mg	–	Hypercholesterolemia incidence	9.1%
C[C@@H](NC(=O)N1C(=O)[C@H](Cc2ccnc(N)c2)[C@H]1C(=O)O)C1CCCCC1	–	healthy adult Chinese volunteers	continuous intravenous infusion, 2.25 mg/kg/h, 5-day infusion, CTCAE 5.0 grading	–	drug-related decreased neutrophil	0%
